Experimental data pooled from the literature.
Parts stem from different laboratories: compare values within a part only.

Block 1
Target: Sal-like protein 4, full length isoform B (SALL4, Homo sapiens, UniProt Q9UJQ4-2, residues 1-616)
Method: universal PBM
Molecule type: double-stranded DNA, one strand shown
Sample: in vitro
Tested at: not given
Setting: 8-mer, flanks averaged, mean of replicates
Reading: higher = stronger binding
Quantity: E-score
Target sequence (chain): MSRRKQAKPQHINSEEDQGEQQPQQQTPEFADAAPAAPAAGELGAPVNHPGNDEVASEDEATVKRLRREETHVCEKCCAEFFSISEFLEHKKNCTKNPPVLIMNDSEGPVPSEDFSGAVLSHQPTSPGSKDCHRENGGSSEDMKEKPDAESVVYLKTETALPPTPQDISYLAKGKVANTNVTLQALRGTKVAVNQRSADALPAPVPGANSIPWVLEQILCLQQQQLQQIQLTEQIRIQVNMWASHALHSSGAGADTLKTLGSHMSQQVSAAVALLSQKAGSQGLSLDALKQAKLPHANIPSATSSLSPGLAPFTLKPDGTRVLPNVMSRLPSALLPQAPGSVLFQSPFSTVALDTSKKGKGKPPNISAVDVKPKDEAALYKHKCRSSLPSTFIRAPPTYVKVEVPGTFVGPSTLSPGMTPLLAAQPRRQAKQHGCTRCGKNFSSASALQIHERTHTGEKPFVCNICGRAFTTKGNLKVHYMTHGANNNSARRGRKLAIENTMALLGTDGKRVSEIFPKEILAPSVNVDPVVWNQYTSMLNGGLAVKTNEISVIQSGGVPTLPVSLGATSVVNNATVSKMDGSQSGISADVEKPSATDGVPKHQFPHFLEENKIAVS
CAGTGATA: 0.114
ATAAATTA: 0.417
AGAAGGAC: -0.175
GTCGCCGA: -0.22
ATTTCTAA: 0.212
AATGTGAA: 0.341
GGCGTAGA: -0.0689
AAAGGTTC: 0.0202

Block 2
Target: Cyclic AMP-dependent transcription factor ATF-1 (ATF1, Homo sapiens, UniProt P18846, residues 1-271, full length assumed)
Method: protein-binding microarray
Molecule type: double-stranded DNA, one strand shown
Sample: in vitro
Tested at: not given
Setting: k-mer, scored over probes, only values ≥0.25
Reading: higher = stronger binding
Quantity: E-score
Construct (chain): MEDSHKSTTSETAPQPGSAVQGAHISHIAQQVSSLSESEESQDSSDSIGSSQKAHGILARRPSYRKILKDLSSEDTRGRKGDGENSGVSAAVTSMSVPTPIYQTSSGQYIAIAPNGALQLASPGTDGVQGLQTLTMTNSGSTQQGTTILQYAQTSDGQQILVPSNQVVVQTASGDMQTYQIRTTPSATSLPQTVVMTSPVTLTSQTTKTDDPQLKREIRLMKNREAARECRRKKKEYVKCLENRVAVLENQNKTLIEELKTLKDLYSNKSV
ACGTTTC: 0.27
AATTCGT: 0.265
ACAACGT: 0.275
CGTCAAA: 0.272
AAAACGT: 0.253
ATACGAC: 0.277
CGACGTC: 0.342
CGTATTC: 0.31

Block 3
Target: Interferon regulatory factor 7, full length, phosphomimetic (IRF7, Homo sapiens, UniProt Q92985, residues 1-503, S471D/S472D/S475D/S476D/S477D/S483D/S484D/S487D)
Sequence of UniProt Q92985 (whole entry, unmodified, looked up): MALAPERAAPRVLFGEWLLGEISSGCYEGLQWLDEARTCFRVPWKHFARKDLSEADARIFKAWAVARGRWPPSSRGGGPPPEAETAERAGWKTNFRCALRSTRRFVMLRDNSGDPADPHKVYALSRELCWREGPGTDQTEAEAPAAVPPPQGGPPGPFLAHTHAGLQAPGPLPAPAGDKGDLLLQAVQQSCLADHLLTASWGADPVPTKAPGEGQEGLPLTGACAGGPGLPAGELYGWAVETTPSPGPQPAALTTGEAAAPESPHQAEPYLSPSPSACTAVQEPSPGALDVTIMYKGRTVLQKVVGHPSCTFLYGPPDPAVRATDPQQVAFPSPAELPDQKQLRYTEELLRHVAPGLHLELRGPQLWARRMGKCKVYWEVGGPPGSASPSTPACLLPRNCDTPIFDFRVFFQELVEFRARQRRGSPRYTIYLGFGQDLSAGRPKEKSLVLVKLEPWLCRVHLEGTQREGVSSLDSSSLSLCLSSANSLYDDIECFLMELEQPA
Method: protein-binding microarray
Molecule type: double-stranded DNA, one strand shown
Sample: in vitro
Tested at: 2200 nM top
Setting: 60-bp whole probe
With: salmon DNA 0.4 mg/ml
Relative to: random background probes
Reading: higher = stronger binding
Quantity: fitted relative affinity
All sequences stand within: GCCTAGCAC … GTCTTGATTCGCTTGACGCTGCTG
TCACTACTGTATTTGGCACTGTGCTAG: 0.952 z-score
TTCGGTCTCCTACTGCTTTAGTGCTAG: 1.73 z-score
GACGATTCCACTTTCGAGACGTGCTAG: 5.86 z-score
TCAGCTTTCTTTTTGCAACTGTGCTAG: 4.61 z-score
TTACGTTTCCTTTCCCTTTAGTGCTAG: 6.91 z-score
ATAGATTTCGGGTTTCGATTAGTGCTA: 6.47 z-score
GTTTATTTATTTTTACATTAGTGCTAG: 1.42 z-score
GAACATTTCAATTAGAAAAAGTGCTAG: -0.613 z-score

Single results of other studies
CCOc1ccccc1NC(=O)N1Cc2c(sc3c2CCCC3)-n2cccc2C1c1ccc(N(C)C)cc1 (stereo not shown)  remaining compound (human, microsomes or S9; 2 µM, 0.5 h): 36.5%
